Published values of several laboratories.
Every numbered part comes from another study and shows a few of its results, in no order. Values joined by “and” are separate records of one study, mostly repeats; a detail may differ.
Sequence of UniProt Q9HCP0 (whole entry, looked up): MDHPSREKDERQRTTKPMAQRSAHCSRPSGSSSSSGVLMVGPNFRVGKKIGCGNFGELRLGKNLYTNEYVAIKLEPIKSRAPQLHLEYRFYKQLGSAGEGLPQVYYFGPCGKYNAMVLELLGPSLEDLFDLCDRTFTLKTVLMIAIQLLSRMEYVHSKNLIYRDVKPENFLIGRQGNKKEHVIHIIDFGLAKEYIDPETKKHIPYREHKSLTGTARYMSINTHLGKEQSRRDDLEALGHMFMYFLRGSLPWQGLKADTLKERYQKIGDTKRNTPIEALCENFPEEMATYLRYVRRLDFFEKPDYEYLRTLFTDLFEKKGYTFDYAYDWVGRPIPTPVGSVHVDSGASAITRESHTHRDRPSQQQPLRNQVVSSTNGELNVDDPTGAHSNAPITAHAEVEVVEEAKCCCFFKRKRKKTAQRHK
Sequence of UniProt Q16584 (whole entry, looked up): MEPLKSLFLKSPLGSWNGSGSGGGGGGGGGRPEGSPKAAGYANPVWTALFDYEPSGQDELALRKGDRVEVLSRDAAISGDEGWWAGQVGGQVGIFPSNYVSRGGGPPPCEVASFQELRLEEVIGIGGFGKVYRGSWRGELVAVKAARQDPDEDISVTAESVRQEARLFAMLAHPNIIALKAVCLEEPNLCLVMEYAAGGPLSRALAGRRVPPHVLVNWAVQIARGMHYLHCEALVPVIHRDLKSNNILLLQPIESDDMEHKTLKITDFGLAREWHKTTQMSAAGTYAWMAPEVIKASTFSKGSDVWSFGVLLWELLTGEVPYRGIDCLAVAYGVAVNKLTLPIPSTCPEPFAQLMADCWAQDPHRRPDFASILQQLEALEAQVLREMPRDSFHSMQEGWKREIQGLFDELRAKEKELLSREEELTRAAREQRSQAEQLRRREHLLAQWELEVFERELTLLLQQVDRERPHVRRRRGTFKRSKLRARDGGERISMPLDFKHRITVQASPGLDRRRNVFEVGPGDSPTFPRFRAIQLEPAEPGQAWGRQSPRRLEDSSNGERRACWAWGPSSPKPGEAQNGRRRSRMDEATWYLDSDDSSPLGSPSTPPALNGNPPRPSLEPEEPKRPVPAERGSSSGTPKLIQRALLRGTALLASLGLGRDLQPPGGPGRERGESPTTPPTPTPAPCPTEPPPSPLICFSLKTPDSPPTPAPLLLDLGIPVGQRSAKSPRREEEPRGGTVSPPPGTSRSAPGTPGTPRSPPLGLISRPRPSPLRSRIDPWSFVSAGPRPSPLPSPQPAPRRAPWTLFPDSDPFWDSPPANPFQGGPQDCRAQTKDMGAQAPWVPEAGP
Sequence of UniProt P35626 (whole entry, looked up): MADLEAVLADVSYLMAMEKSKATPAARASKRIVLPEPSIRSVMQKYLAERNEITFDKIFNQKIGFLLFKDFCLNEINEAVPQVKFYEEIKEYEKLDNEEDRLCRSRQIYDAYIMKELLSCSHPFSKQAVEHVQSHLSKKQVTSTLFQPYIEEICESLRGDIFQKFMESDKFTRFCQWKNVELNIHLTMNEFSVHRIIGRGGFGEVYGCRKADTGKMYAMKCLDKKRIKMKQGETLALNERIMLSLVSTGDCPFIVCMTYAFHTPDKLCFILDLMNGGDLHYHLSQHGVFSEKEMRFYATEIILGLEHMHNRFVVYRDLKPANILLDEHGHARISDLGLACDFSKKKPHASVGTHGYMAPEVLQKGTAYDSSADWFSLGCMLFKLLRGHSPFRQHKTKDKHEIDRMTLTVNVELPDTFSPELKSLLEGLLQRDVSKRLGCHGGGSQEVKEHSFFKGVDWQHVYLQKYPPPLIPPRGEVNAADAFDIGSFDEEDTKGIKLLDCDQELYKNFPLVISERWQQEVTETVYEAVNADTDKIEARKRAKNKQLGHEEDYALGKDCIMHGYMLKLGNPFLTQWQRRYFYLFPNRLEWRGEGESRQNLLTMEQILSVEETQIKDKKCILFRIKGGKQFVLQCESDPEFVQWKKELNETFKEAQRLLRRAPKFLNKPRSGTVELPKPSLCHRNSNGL
Sequence of UniProt P49841 (whole entry, looked up): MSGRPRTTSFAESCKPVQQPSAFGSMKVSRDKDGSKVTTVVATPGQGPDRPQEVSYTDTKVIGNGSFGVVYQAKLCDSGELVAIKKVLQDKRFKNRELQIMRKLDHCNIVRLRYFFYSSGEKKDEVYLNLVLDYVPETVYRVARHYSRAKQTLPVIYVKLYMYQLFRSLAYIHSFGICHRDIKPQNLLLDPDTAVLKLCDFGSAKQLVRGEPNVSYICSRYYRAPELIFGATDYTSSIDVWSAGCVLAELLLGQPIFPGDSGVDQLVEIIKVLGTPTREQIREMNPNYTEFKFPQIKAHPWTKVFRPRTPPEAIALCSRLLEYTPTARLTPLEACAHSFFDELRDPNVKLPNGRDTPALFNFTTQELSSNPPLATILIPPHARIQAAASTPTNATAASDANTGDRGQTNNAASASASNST
Sequence of UniProt P07949 (whole entry, looked up): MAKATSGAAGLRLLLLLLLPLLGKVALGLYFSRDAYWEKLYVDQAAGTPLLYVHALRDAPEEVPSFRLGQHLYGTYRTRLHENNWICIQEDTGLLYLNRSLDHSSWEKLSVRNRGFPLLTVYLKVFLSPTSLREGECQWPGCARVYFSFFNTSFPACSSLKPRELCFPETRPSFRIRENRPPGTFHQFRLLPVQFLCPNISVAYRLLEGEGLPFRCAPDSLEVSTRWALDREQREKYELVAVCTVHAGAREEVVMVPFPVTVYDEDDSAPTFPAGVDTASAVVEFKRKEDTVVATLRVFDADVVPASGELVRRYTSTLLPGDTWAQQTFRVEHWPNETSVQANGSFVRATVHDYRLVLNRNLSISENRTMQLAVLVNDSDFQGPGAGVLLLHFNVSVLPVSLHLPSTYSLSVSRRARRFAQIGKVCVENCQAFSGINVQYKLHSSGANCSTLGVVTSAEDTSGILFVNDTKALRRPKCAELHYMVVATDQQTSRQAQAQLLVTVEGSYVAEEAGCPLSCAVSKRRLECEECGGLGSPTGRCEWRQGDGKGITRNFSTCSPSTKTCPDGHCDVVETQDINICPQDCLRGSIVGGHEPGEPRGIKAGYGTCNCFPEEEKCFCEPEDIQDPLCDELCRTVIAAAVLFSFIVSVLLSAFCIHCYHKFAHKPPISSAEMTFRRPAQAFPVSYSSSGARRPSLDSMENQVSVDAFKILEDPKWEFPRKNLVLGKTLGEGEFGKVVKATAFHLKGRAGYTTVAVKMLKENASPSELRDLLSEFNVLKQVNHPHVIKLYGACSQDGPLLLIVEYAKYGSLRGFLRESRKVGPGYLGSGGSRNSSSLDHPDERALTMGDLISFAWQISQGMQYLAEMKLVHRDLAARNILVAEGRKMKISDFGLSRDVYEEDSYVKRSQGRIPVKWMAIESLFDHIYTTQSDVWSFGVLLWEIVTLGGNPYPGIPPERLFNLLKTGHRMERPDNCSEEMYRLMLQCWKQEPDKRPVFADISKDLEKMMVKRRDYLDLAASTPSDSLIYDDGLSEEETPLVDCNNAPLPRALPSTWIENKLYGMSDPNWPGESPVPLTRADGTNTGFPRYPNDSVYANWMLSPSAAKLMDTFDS
Sequence of UniProt P53671 (whole entry, looked up): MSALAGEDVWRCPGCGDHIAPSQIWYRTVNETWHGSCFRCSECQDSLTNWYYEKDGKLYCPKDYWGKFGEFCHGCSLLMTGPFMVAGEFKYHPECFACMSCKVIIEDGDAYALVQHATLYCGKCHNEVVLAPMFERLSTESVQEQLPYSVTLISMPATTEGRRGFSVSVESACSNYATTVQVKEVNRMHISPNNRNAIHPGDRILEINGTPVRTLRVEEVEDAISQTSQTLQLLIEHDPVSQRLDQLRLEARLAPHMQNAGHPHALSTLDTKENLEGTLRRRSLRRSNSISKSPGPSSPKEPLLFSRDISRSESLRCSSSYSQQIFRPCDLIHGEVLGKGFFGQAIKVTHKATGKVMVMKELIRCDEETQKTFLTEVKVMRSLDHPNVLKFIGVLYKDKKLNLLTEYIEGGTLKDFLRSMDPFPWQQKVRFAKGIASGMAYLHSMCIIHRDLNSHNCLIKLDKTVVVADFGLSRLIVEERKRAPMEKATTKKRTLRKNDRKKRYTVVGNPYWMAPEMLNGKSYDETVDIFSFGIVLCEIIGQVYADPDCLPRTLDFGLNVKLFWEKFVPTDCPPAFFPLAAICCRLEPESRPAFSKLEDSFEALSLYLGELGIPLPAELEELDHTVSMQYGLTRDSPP

Series 1
SMILES: CCCCN(CCCC)C(=O)CN1C[C@@H](c2cc(OC)c3c(c2)OCO3)[C@H](C(=O)O)[C@H]1CC(C)(C)CCC
Concentration: 1 µM
target | read-out | method | remaining binding [%]
GRK3 (Homo sapiens, UniProt P35626) | cell-free assay | competition with immobilised ligand | 87.6
LIM domain kinase 2 (LIMK2, Homo sapiens, UniProt P53671) | cell-free assay | competition with immobilised ligand | 86.8
CSNK1A1 (Homo sapiens, UniProt P48729) | cell-free assay | competition with immobilised ligand | 99.1
CAMK2A (Homo sapiens, UniProt Q9UQM7) | cell-free assay | competition with immobilised ligand | 100
MAP3K11 (Homo sapiens, UniProt Q16584) | cell-free assay | competition with immobilised ligand | 100
PIM3 (Homo sapiens, UniProt Q86V86) | cell-free assay | competition with immobilised ligand | 81.5
GSK3B (Homo sapiens, UniProt P49841) | cell-free assay | competition with immobilised ligand | 100
CDC42BPG (Homo sapiens, UniProt Q6DT37) | – | competition binding | 94.4
RET (Homo sapiens, UniProt P07949) | cell-free assay | competition with immobilised ligand | 86.1
PDGFRA (Homo sapiens, UniProt P16234) | cell-free assay | competition with immobilised ligand | 100
MAP4K3 (Homo sapiens, UniProt Q8IVH8) | cell-free assay | competition with immobilised ligand | 94.1
Tyrosine-protein kinase ABL1, phosphorylated (ABL1, Homo sapiens, UniProt P00519, Q252H) | cell-free assay | competition with immobilised ligand | 94.6
CSNK1G1 (Homo sapiens, UniProt Q9HCP0) | cell-free assay | competition with immobilised ligand | 100

Series 2
Target: Beta-1 adrenergic receptor (ADRB1, Homo sapiens, UniProt P08588)
Sequence of UniProt P08588 (whole entry, looked up): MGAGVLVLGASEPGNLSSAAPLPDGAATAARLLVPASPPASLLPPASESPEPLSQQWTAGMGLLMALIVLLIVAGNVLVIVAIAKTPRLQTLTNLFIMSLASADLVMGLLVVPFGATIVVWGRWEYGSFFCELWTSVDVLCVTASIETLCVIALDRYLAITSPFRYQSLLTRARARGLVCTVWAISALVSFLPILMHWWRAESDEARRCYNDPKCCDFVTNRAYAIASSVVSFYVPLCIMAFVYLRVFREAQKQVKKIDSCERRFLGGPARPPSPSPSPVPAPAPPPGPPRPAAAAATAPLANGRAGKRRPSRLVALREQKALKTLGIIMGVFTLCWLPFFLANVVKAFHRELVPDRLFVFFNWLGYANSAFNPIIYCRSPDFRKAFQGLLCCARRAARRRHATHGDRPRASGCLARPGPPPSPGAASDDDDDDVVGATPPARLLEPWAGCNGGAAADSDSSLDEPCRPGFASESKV
Action: antagonist
Compound | IC50
COCc1nc(NCCc2nc(-c3ccccn3)no2)c2cnn(C)c2n1 | ≥ 100 µM
Brc1ccccc1-c1noc(-c2c[nH]nc2-c2ccccc2)n1 | ≥ 100 µM
CN(Cc1ccccc1)Cc1cc(CC2(NCc3ccc(N(C)C)cc3)COC2)no1 | ≥ 100 µM
COc1cc(NC(=O)NCCN2CCN(c3ccccc3)CC2)cc(OC)c1OC | ≥ 100 µM

Series 3
Compound: COc1cc(C(=O)N2CCC(N3CCN(C)CC3)CC2)ccc1Nc1ncc2c(n1)N(C)c1ccccc1C(=O)N2C
target | assay | system | setting | inhibition
TLK1 and TLK2 (human) | probe labelling, KiNativ, refers to: Lys2 site peptide | PBMC lysate (human) | 1 µM, added: ATP acyl-phosphate probe | 2.4%
Dual specificity mitogen-activated protein kinase kinase 7 (Map2k7, Mus musculus, UniProt Q8CE90) | probe labelling, KiNativ, refers to: DVkPSNILLDER peptide, Lys2 site | brain tissue lysate (mouse) | 0.1 µM, added: ADP acyl-phosphate probe | 20.4%
YANK3 | – | – | 0.1 µM | -3.6%
PIP4K2C mouse | KiNativ profiling | mouse brain lysate | 0.1 µM, ATP site, added: ATP acyl phosphate probe | 5.9%
ATR (mouse) | probe labelling, KiNativ, refers to: FYIMMCkPK peptide, ATP site | brain tissue lysate (mouse) | 1 µM, added: ADP acyl-phosphate probe | -5.7%
HGK (MAP4K4, human) | probe labelling, KiNativ, refers to: Lys1 site peptide | PBMC lysate (human) | 1 µM, added: ADP acyl-phosphate probe | -7.5% and 0.6%

Series 4
Host: mouse
Sample: microsomes or S9
Concentration: 2 µM
Time: 0.5 h
Compound | remaining compound [%]
CN(C(=O)CN1C(=O)COc2cc(Cl)c(Cl)cc21)C(CN1CCCC1)c1ccc(-c2ccnc(Cl)c2)cc1 (stereo not drawn) | > 100
Cc1ccc(F)c(N2CCC(NS(=O)(=O)c3cnc4c(c3)c(C)nn4C)CC2)c1 | 0.278
O=C(C1CC(=O)N(c2nc[nH]n2)C1)N1CCC(c2c[nH]c3ccccc23)(c2c[nH]c3ccccc23)CC1 (stereo not drawn) | 8.8
Cn1cnnc1C1CCCCN1S(=O)(=O)c1cccc2cccnc12 (stereo not drawn) | 51.6
Cc1ccc2c(c1)C(NC(=O)c1ccc(CS(=O)(=O)c3ccc(Br)cc3)o1)CC1(CCCCC1)O2 (stereo not drawn) | 10
CCOc1cc(=O)n2c(c1C(=O)NCCc1ccc(OC)c(OC)c1)CCCC2 | 72.3
CC1CCN([S+]([O-])C23CC4CC(CC(C4)C2)C3)CC1 (stereo not drawn) | 0.173

Excerpt of the above (series 1):
target | read-out | method | remaining binding [%]
CSNK1G1 (Homo sapiens, UniProt Q9HCP0) | cell-free assay | competition with immobilised ligand | 100
CDC42BPG (Homo sapiens, UniProt Q6DT37) | – | competition binding | 94.4
GRK3 (Homo sapiens, UniProt P35626) | cell-free assay | competition with immobilised ligand | 87.6
PIM3 (Homo sapiens, UniProt Q86V86) | cell-free assay | competition with immobilised ligand | 81.5
LIM domain kinase 2 (LIMK2, Homo sapiens, UniProt P53671) | cell-free assay | competition with immobilised ligand | 86.8
